Results of several laboratories.
Each numbered part is a random draw from the data of one study; scales do not carry over between parts. Substitutions count along the parent as printed.

Block 1
Target: ABI1, truncated, D143A, DHFR fusion (Arabidopsis thaliana)
Method: DHFR PCA, deep sequencing
Matrix: yeast
Notes: methotrexate growth selection, single substitutions
With: (+)-ABA 0.0091 µM
Baseline: wild-type fitted maximum
Reading: higher = stronger binding
Starting sequence: PYL1, truncated, DHFR fusion (Arabidopsis thaliana); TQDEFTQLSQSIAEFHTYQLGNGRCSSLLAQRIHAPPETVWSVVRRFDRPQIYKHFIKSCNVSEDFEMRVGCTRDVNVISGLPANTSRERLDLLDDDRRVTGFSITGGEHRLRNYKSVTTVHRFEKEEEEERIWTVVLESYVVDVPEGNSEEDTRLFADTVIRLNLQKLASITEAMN; partner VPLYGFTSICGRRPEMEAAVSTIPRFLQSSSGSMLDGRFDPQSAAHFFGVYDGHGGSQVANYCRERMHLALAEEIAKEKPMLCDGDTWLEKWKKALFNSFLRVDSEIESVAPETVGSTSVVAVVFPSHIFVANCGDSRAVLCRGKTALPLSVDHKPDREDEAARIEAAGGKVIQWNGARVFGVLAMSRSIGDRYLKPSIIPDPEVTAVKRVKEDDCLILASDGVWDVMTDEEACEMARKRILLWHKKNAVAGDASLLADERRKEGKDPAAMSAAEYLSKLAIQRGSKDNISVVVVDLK
Variant | relative binding score [%]
I172D | -5.58
E174Y | -2.97
E151Q | 19.4
M176G | 8.73
E38P | 4.29
E14K | 12
D97S | 21.1
V137H | -9.57
V62S | 10
L138E | 3.18
V121C | 4.09
I133W | 7.87
S9I | 24.4
V118W | 0.303

Block 2
Target: CCNF, cyclin fold, Cln2 fusion (human)
Method: yeast growth competition, sequencing
Matrix: yeast
Notes: strong parent motif
Baseline: not given
Reading: higher = stronger binding
Starting sequence: CDT1 docking peptide (human); PPARRRLRLSVDE
Variant | normalised enrichment score
R8A | 7.37
S10A | 7.51
L7A | 2.04
L9F | 8.16
E13A | 8.32
P1A | 7.51
R5A | 0.353
R5A L7A | 0.448
R5K L9F | 2.8

Block 3
Target: RNA binding protein fox-1 homolog 2, RRM domain, GST-SBP tag (RBFOX2, Homo sapiens, UniProt O43251-10, residues 100-194)
Method: RNA Bind-n-Seq
Molecule type: RNA
Matrix: in vitro
Tested at: 365 nM
Notes: natural RNA segment, single round, ends assumed
Baseline: no-protein control
Reading: higher = stronger binding
Shared flanks, not repeated: GGGAGUUCUACAGUCCGACGAUC … UGGAAUUCUCGGGUGCCAA
Residues (chain): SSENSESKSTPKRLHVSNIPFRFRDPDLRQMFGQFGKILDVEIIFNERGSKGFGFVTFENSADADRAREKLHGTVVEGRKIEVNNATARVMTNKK
Oligonucleotide | RBNS enrichment (R)
UUAAUUUCUUUAGGACAGUUGUAAAGGUCUCUCUCCUGAGGACAAUGACUUGGAAGAACUGGGGCACAGCCAGUCCCAGACACUGGUGGAGGCUGCAGUGACUUUUUUUG | 0.285
GUAUAGCCUUCCACAUAGAUCUGCAUCAUGUAAGCUCAGGUUACUAUGAUUCCCUUCAGUUUCCUUCCAGAAUAUCCAACUUAUAUAACACUUCAAAAAUUAUCUUCAAU | 0.359
ACAUCACAGUUCUUCCUUUUAACUCUAGUGACCCGGGGUCCGAGUUGCCCCUAUGCUUCCAGGGCAAUUUGGAGCAGACAGACCAGUGGGGGGUGGGGAACCUCCUUCCA | 0.365
UGGACACAAGCUUAGAUUCUCUAUGUAUAGUUCCCCGUGUUCACUAACAUGCCCUCUCUGGAAAGCAUAUGUAUAUAACAUGUGUCAUGUCCUUUGGAAACCUGGUCACC | 0.182
AUCAGCCAUUUCUGUUGUGAACUGUAGAAGAUCUUAAAUUGGGAUUGGACUCACUCUCUGUUCCACAAACAUAGAUGUAACCCUCUACCUCUCCUUACCCAACUUAUUAC | 0.465
CCCAGGCCAUACUCCCUGCCUCCUUUCUUCUGCCUACCAGAGGCUCCAGAGUUGAGCUUGUCCUUAUCUAGAAACAUGUGAAGAUGCCCAAGAGCCUGGAGGCACUGCUG | 0.5
CUUGUUUGAGACUGGGCUGCAGGCCCCAGGAAGACUUUCCUUCACCCACCAUCCCCCUAACCUCGGCAGGGCUUCUGUCCUGUGGAGUUCCCUGGACACCUUGGUCUGGC | 0.375
GCUUUAAAAAAACCUCCACAGCCGAAUCUUCUCCUCCGAGCCACUCCACGUCACGUCCAGCUGGGCCUGGCCAGUCUGUGGUUAUCCAUGUGGGAUGAGAUAACACCACA | 0.254
GAGACCUAGCCUAGUUUUCCUGCAGACAAUGAAUGAAGUGUGCUCAUUGAAAUAAAAUACAGAGUCAAAUCGCUAUUGUUGUUUUAAUGAUCUGUUUUUAGCUGGAUGGU | 0.609
UUCUGCCACAGAACAGCAGCAGACGUGUCGGGAGGUUAGCUGCGGAAAGAAAUCGGGAUGCCGCGGAGCACAGAGUGAUUUGGAACUCCAUUCCACCUGACCCUGUGUGU | 0.377
CCCUGGGUAGCAGACGGCUGCUGCCCUUCUCUGGGCAUGUUCUGAAUGUUUACACUGGUACCUUCUGGUAUCUUCUUUAGAGCCCCCUGCAAGCUGCAACUCUAGGCUUU | 0.484
AUACAUCUAUAGUUCUCCCCCGGGGAGCUAGUGUUUGAACUUUGAAGUCUGCUCAGCUGCAUGGUGGAAAGGACUGUGUUCUUUUUUUUCUUGCACACAAUUCCUUUGAA | 1.01

Block 4
Target: CREB3, bZIP domain (human)
Method: DHFR protein complementation
Matrix: yeast
Notes: single substitutions, most at no-binding floor
Baseline: wild-type JUN-FOS pair
Reading: higher = stronger binding
Starting sequence: JUN, bZIP domain (human); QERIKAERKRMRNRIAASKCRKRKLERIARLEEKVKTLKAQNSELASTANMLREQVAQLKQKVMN; partner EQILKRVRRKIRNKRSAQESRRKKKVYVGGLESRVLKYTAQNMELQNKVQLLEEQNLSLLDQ
Variant | binding fitness [natural log]
M51L | -1.47
E32N | -1.53
L38C | -1.49
R30H | -1.53
R53V | -1.52
R53H | -1.5
L59W | -1.37
R53P | -1.51
A40H | -1.57
L31W | -1.54
Q41L | -1.31
A29R | -1.35
L45K | -1.52
A57K | -1.59
S47D | -1.44
A49H | -1.55
T48I | -1.46
L38V | -1.44
E33Q | -1.4
T37K | -1.4
L38F | -1.41
A46S | -1.32
R30Q | -1.46
T37C | -1.45
K34E | -1.54

Block 5
Target: RING finger protein unkempt homolog, zinc fingers 1-6, GST-SBP tag (UNK, Homo sapiens, UniProt Q9C0B0, residues 30-357)
Method: RNA Bind-n-Seq
Molecule type: RNA
Matrix: in vitro
Tested at: not given
Notes: RNA with constant flanks, human-mouse chimeric sites, ends assumed
Baseline: input RNA pool
Reading: higher = stronger binding
Shared flanks, not repeated: GGGAGUUCUACAGUCCGACGAUC … CAACAGAGGAUUGAGCAUCA
Residues (chain): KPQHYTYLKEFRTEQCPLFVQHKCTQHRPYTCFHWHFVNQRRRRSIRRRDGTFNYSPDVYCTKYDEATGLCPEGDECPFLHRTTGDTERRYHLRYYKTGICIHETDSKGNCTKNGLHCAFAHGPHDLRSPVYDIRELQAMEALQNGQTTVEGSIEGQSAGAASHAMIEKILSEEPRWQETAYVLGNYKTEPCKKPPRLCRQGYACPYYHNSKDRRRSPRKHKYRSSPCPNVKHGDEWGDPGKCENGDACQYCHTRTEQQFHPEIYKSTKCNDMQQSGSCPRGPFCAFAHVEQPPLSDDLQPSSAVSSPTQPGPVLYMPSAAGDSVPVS
Oligonucleotide | bound/input enrichment [ratio]
GUAUUUGUGCGCUCCCCACUCGUGUUUUUAAGUGUAUUUUUAUAAGAUACAUGUAUUUACAAUUGAGCUUUUGUUACAUAAUGCUGAAAUGCUACUGCAAUAUUAUGAAAAUGUUUCAAU | 0.155
GUGCCCUUCUCGCUGCUGCGGAGCCCGAGCUGGGAACCAUUCCGGGACGACUGGUACGCACACAGCCGCCUCUUCGAUCAAGCUUUCGGGGUGCCCCGGCUGCCGGAUGAGUGGUCGCAG | 0.0759
UGUAGUUUCUUGAUUUAUCAUUUUUCUUGCUCGGGUUUUUCCUUUAGGAAAAGCCUAAAGAUUAGGUUGUAAGAAAAACAGAAGCCAGCCAUGUUUCACCUGUGUUACAGGUAUUUCGUC | 0.254
CUGGCCUGGCCCUCCCCAGGGGCCUCCUUUCGUAUAGUCACUGCUUCUGCAUCAGAUAUUUUUAGCUGCAACUCCCUGCAGGGUGGGGCACCCAUUUCAGGCAGAAGGUUUUGGUACCCU | 1.16
GAAACUAUUCCUAAAGAGGAGAGAGCUGAGAAGGAUGCUCGGAGAUCAUCUCUUGAGAAACAUAGAAAAGAAAAGCCUUUUAAAACCGGGAGAGGCAGAAUUUCCACUCCUGAAAGAAAA | 0.43
CAUGUAUCUGCAGUACUUGAUGUGGACUACUCUCCCACUGGGAAGGAAUUUGUGUCUGCCAGCUUUGAUAAGUCUAUUAGAAUCUUUCCUGUGGACAAAAGUCGAAGCAGGGAAGUGUAU | 0.592
AACAGAUUGUCUUUAAGCAUUCCAAGCGAGAAUGCUGGGGUGAUCAUAAUUACCCACGUGCCUUCUGACUGAGCUUUUAAUUAAUUGCAUGUUACAUCUUUCCUUCACUCCAGAAUUGUU | 0.263
AUGGAACAUUUCGAUGCGUCACUCAGUACCUAUUUCAAGGCCUUCCUGGGCCCCCGAGAUACAAGAGUAAAAGGAUGGUUCCUCCUGGACAAUUACAUACCCACAUUUGUCUGUUCUGUU | 0.0763
ACUCAGAGAUCCACCUCCCAAAGUGCUCUGGAGCUCUGUGUGGCCACCACACCUAACUUCAUAGACAUAUAUUUUUUUUAAUAUGAAUCUUCCUGUUCGUCCAGGGAAGAAAGAUUUGUU | 29.3
CUGGCCUGGCCCUCCCCAGGGGCCUCCUUCUCUGCAUUCACUGCUUCUGCAUCAGAUACUUUCAGCUGCAACUCCCUACUGGGUGGGGCACCCAUUUCAGGCAGAAGUUGGUGCCCCCCU | 0.226
GGCUGCUGGUGACUGUCGGGAGCCGUCUGGAGUUCCCGCCGGAGCGCGGCCAGACUAAUUUUAGAAAAUGCCAAGUAGGAAGUUUGUUGAGGGUGAAGUGGUAAGAGGCCGAUGGCCUGG | 3.36

Excerpt of the above (block 1):
Variant | relative binding score [%]
E174Y | -2.97
E151Q | 19.4
M176G | 8.73
E38P | 4.29
E14K | 12
D97S | 21.1
V137H | -9.57
V62S | 10
L138E | 3.18
V121C | 4.09
